# Published values of several laboratories.
# Each line is one published result; not all experiments were run side by side.
# Effect on: binding
# Chain of UniProt Q13546 (whole entry, looked up): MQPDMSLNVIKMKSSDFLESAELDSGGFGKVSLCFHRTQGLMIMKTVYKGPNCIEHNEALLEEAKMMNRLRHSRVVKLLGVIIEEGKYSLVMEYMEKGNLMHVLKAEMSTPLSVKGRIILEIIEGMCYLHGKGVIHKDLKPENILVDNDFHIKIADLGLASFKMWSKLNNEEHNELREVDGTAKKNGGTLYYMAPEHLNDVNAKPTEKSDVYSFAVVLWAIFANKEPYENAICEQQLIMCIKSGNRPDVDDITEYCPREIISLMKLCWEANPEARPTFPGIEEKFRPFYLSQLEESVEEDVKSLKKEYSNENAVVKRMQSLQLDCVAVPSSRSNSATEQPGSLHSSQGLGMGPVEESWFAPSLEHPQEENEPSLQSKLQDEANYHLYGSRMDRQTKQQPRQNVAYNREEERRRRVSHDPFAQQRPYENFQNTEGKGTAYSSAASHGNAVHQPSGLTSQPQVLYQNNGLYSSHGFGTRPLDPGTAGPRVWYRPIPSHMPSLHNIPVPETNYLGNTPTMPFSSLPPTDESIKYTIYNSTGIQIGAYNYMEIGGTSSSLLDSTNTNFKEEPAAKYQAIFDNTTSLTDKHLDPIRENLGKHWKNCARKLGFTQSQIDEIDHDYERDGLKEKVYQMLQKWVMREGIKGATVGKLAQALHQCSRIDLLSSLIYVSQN
# Chain of UniProt P42336 (whole entry, unmodified, looked up): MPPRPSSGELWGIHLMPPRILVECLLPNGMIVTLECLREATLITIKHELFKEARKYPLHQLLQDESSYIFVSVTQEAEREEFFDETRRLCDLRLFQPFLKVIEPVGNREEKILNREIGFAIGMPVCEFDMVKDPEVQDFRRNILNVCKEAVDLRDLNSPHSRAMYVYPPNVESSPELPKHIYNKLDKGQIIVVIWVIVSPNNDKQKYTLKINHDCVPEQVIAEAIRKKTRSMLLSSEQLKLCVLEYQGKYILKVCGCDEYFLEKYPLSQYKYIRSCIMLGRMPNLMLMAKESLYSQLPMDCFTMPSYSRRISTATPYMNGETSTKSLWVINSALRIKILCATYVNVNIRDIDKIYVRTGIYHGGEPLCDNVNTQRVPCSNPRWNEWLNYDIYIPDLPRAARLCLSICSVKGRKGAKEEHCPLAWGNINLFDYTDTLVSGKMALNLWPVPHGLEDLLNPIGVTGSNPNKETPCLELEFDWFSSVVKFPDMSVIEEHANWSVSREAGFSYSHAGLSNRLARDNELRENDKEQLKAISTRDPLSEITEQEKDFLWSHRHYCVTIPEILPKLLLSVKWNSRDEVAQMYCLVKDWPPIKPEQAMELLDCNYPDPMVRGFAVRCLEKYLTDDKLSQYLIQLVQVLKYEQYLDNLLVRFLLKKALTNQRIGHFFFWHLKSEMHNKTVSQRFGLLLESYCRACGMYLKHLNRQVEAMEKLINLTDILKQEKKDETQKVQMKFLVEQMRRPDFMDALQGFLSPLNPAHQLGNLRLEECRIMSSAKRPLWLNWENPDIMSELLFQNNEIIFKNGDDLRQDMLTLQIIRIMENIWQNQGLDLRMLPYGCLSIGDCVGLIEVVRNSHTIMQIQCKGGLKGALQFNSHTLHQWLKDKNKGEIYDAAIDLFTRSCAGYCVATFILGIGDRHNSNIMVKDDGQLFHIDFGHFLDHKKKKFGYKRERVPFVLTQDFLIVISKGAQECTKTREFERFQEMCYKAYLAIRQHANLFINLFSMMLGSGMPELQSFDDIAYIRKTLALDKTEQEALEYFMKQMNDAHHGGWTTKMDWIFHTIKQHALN
# Chain of UniProt P57059 (whole entry, looked up): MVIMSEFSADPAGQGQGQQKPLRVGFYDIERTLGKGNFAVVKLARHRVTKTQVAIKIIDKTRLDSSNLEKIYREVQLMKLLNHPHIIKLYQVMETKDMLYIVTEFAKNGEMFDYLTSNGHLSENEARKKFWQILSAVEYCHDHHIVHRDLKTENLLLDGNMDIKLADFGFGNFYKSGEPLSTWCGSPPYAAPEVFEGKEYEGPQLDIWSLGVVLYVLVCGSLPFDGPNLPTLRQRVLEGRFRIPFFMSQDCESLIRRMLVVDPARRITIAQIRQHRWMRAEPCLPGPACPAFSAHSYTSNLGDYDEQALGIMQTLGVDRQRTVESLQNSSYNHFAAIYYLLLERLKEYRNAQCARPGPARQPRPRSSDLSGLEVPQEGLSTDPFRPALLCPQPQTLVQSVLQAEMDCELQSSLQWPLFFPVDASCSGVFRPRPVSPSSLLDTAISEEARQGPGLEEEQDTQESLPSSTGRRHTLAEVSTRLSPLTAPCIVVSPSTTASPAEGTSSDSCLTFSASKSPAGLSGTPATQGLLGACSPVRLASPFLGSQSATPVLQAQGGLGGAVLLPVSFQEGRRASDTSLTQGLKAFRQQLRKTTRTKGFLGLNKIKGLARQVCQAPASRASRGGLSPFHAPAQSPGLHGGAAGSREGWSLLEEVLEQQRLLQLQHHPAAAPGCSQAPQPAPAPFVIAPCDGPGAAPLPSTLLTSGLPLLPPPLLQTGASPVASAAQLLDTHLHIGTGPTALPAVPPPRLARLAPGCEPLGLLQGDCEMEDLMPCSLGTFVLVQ
# Chain of UniProt P62344 (whole entry, looked up): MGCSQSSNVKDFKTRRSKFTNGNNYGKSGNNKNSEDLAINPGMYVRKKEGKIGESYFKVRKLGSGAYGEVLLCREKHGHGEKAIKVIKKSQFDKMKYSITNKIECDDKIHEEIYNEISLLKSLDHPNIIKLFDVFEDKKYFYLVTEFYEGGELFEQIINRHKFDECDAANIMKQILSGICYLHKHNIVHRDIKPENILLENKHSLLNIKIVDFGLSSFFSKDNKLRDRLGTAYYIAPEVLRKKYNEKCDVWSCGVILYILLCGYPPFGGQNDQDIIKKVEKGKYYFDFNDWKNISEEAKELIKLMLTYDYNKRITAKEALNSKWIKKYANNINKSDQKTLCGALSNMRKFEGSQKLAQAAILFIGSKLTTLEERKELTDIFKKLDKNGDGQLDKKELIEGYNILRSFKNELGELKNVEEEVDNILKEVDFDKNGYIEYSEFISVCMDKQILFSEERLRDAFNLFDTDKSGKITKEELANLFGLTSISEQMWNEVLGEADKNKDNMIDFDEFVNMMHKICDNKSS
# Chain of UniProt P23443 (whole entry, looked up): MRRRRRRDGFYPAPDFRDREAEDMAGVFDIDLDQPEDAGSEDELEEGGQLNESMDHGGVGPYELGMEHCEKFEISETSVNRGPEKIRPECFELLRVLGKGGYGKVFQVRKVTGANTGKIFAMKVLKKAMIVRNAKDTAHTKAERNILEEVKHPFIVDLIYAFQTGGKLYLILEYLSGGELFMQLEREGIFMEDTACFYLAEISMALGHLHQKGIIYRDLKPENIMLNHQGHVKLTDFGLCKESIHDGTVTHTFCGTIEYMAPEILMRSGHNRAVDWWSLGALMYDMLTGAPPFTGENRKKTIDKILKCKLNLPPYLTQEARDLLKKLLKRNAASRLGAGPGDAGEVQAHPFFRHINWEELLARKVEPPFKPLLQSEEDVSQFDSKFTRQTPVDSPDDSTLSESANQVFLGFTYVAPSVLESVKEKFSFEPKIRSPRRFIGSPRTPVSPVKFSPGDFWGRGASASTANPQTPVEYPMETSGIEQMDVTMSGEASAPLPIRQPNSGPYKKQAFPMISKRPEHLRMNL
# Chain of UniProt Q16566 (whole entry, looked up): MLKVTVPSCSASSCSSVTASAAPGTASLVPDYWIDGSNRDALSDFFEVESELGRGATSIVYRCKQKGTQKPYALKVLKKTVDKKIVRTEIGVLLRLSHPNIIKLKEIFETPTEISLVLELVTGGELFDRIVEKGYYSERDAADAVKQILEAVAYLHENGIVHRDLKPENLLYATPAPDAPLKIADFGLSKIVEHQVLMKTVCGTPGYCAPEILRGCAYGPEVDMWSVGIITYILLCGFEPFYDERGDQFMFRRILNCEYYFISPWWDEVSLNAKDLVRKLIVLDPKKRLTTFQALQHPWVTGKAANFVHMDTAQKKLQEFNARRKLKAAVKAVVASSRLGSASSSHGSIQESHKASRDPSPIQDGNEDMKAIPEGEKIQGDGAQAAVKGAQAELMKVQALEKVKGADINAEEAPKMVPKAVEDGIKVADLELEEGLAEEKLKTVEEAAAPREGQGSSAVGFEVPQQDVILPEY
Structure (SMILES),target,method,tested at,remaining binding [%]
CC1CCCN1c1nccc(-c2cnn3ncccc23)n1 (centres unmarked),"CDPK1 (Plasmodium falciparum, UniProt P62344)",,1 µM,100
C=CC(=O)N1CCC(COCC(=O)N2CCN(c3nc(-c4cnc(N)nc4C(F)F)nc(N4CCOC[C@@H]4C)n3)CC2)CC1,"CAMK4 (Homo sapiens, UniProt Q16566)",competition with immobilised ligand,1 µM,100
Cc1cc([C@@H](C)Nc2ccccc2C(=O)O)c2nc(N3CCC(F)(F)CC3)c(C#N)c(=O)n2c1,"Tyrosine-protein kinase JAK2, JH1 (JAK2, Homo sapiens, UniProt O60674)",competition with immobilised ligand,1 µM,100
CCCCC(=O)Nc1ccc(-c2ccc3ncn(CCC)c(=O)c3c2)cn1,"PIK3CA (Homo sapiens, UniProt P42336, E545A)",competition with immobilised ligand,0.5 µM,97
C[C@@H]1CCN(c2nccc(-c3cnn4ncccc34)n2)C1,"SIK1 (Homo sapiens, UniProt P57059)",,1 µM,100
FC(F)(F)Oc1cccc(-c2cnc3ccc(-c4ccncc4)nn23)c1,"RPS6KB1 (Homo sapiens, UniProt P23443)",competition with immobilised ligand,5 µM,93
C[C@@H](c1ccc(-n2cnc3c(N)ncnc32)cc1)N1CCc2nn(C)c(Cc3ccccc3)c2C1=O,"RIPK1 (Homo sapiens, UniProt Q13546)",competition with immobilised ligand,0.1 µM,1.4
C1=C/COCc2cc(ccc2OCCN2CCCC2)Nc2nccc(n2)-c2cccc(c2)COC/1,"ERBB3 (Homo sapiens, UniProt P21860)",,0.1 µM,22

# Some of these lines once more:
Structure (SMILES),target,method,tested at,remaining binding [%]
C=CC(=O)N1CCC(COCC(=O)N2CCN(c3nc(-c4cnc(N)nc4C(F)F)nc(N4CCOC[C@@H]4C)n3)CC2)CC1,"CAMK4 (Homo sapiens, UniProt Q16566)",competition with immobilised ligand,1 µM,100
